{"data": "Experimental data collected from several papers", "note": "Each numbered part is a random draw from the data of one study; scales do not carry over between parts. Substitutions count along the parent as printed."}
{"data": "Sample 1", "target": "CCNA2, cyclin fold, Cln2 fusion (human)", "method": "yeast growth competition, sequencing", "sample": "yeast", "setting": "weak parent motif", "baseline": "not given", "direction": "higher = stronger binding", "starting sequence": "MASTL docking peptide (human); PMIAKNLMCELDE"}
{"Change": "PMIAKPLMCELDE [N6P]", "normalised enrichment score": -0.477}
{"Change": "PMIAKNLMCELCE [D12C]", "normalised enrichment score": -0.199}
{"Change": "PMIAKNMMCELDE [L7M]", "normalised enrichment score": -0.604}
{"Change": "PMIAKNGMCELDE [L7G]", "normalised enrichment score": -0.734}
{"Change": "PMIAKNQMCELDE [L7Q]", "normalised enrichment score": -0.0735}
{"Change": "PMIQKNLMCELDE [A4Q]", "normalised enrichment score": -0.18}
{"Change": "PMVAKNLMCELDE [I3V]", "normalised enrichment score": -0.131}
{"Change": "PMIAKNLTCELDE [M8T]", "normalised enrichment score": -0.37}
{"Change": "PMIAKNLMCEIDE [L11I]", "normalised enrichment score": 0.124}
{"Change": "PMIAQNLMCELDE [K5Q]", "normalised enrichment score": -0.653}
{"Change": "PMIAYNLMCELDE [K5Y]", "normalised enrichment score": -0.515}
{"data": "Sample 2", "target": "RING finger protein unkempt homolog, zinc fingers 1-6, GST-SBP tag (UNK, Homo sapiens, UniProt Q9C0B0, residues 30-357)", "method": "RNA Bind-n-Seq", "form": "RNA", "sample": "in vitro", "tested at": "not given", "setting": "RNA with constant flanks, human and mouse sites, ends assumed", "baseline": "input RNA pool", "direction": "higher = stronger binding", "UniProt Q9C0B0, sequence (30-357, looked up)": "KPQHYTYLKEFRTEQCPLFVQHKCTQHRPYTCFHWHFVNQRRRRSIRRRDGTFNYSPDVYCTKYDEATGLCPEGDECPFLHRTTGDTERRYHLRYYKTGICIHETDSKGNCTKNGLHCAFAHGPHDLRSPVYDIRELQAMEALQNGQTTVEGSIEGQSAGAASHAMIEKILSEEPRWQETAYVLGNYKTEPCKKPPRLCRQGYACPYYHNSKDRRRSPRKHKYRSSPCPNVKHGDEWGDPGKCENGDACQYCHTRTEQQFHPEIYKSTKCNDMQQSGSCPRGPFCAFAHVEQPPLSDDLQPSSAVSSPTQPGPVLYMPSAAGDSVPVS"}
{"Strand": "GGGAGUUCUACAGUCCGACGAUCAAAUCCAAAGCUCGUCGAUGCCGAGUACACCAAAAACCAGGCCUGGAAGUCUAUGAAAGAUACUCUGGGAAAGCCAGCCGCUAAGGAUGUACACCUCAUAGAUCACUGCAAAUACAGAUACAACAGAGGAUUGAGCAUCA", "bound/input enrichment": "0.134 ratio"}
{"Strand": "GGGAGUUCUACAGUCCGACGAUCAGCAUGCGGAGCAGGACCAUAGAAGAGGGGAAAGGCACCGGGUUUGCCCACCCCUCACCCACCUGGCCCUCUGUGUCCAUUAGCACUCCCAGUGACGAACCCCUAGAGGGGACCGAAGACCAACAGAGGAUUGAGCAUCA", "bound/input enrichment": "0.133 ratio"}
{"Strand": "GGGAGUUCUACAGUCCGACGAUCAACCAAGGAACAGUGAUCCAUUUUAACAACCCUAAAGUUCAGGCAUCCCUGGCAGCAAACACCUUCACCAUUACAGGCCACGCUGAGACAAAGCAGCUGACAGAAAUGCUUCCCAGCAUCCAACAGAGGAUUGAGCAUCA", "bound/input enrichment": "0.438 ratio"}
{"Strand": "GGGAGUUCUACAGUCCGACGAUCGGUGUAUUUAUGCUGUCUGAUUACAGAAUCACUGGAAAUACUGUGCUGUGUUACUGCUGUGGUCUGCGUAGCUUCCGAGAGCUGACCUACCAGUAUCGUCAGAACAUUCCUGCUUCUGAGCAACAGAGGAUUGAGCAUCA", "bound/input enrichment": "0.135 ratio"}
{"Strand": "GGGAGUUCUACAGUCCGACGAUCAGCAAGAUCAUGUGCAUAUCAUCCCAUUGUAAAGCGACUUCAAAAAUAUGGGAACACAGUUAGUUAUUUUUACACAGUUCUUUUUGUUUUUGUGUGUGUGUGCUGUCGCUUGUCGACAACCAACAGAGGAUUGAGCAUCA", "bound/input enrichment": "0.846 ratio"}
{"Strand": "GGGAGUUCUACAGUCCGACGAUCAUAUCUUAUUGCCAUAAACUCCAUGUGGUCCACAGAGACUUGAAACCAGAGAAUGUAGUCUUUUUUGAAAAACAAGGUCUUGUGAAGUUGACAGACUUUGGCUUCAGCAACAAAUUUCAGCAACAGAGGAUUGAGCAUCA", "bound/input enrichment": "0.265 ratio"}
{"Strand": "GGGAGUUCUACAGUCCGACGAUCCUGCCAAGCUGCUGGUCCUCAAAGGAAGAUUCUAGCCUACCCCCCAGCCUUGUUCCCACAUUCCAUCACCCACCUGAGCUCACAUGCUGACCUGCCCCCCUCCUCAGCACUCACCGUGUGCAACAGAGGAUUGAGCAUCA", "bound/input enrichment": "0.489 ratio"}
{"Strand": "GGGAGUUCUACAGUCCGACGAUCUUGGAAAAUGGAUAUACUUUAUUUGACUACGACGUUGGACUGAAUGAUAUAAUUCAGCUGCUAGUUCGUCCAGACUCCAGUCUUCCUAGCACAUCUAAGCAGAAUGAUGCUCAGGUUAAACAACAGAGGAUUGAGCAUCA", "bound/input enrichment": "0.22 ratio"}
{"data": "Sample 3", "target": "Transcription factor SOX-2, HMG box (Sox2, Mus musculus, UniProt P48432, residues 41-119)", "method": "Spec-seq", "form": "double-stranded DNA, one strand shown", "sample": "in vitro", "tested at": "not given", "setting": "whole probe, mean of replicates", "baseline": "not given", "direction": "lower = stronger binding", "constant ends, left off below": "GAGTCGTCTCGTCAGCAC … CCGTAGAGCACTCAGGTC", "UniProt P48432, sequence (41-119, looked up)": "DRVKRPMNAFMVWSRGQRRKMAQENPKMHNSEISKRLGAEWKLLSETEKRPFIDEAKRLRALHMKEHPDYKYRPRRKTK"}
{"Strand": "CATTGAC", "relative binding energy [ln ratio]": -1.25}
{"Strand": "GCTCGTT", "relative binding energy [ln ratio]": 1.15}
{"Strand": "AAACGTT", "relative binding energy [ln ratio]": -0.416}
{"Strand": "GCACGTT", "relative binding energy [ln ratio]": 1.19}
{"Strand": "CTAAGTT", "relative binding energy [ln ratio]": 0.648}
{"Strand": "CTAGGTT", "relative binding energy [ln ratio]": 0.939}
{"Strand": "CATCTGC", "relative binding energy [ln ratio]": 0.977}
{"Strand": "CGCAGTT", "relative binding energy [ln ratio]": 0.685}
{"Strand": "CATTTTC", "relative binding energy [ln ratio]": -0.233}
{"data": "Other studies, line by line"}
{"Substance": "PhoQ, residues 284 288 289 292 302 303 ASVMEA", "target": "PhoP, residues 12 14 15 18 19 LYFRQ (Escherichia coli, UniProt P23836)", "test": "Sort-seq, refers to: YFP reporter", "test system": "E. coli", "conditions": "PhoQ-PhoP variant library, together with: 10 µM Mg2+", "scale": "baseline: high Mg2+ state, higher = stronger signaling", "endpoint": "fold induction", "value": 5.51}
{"note": "Excerpt of the above (sample 3):"}
{"Strand": "CATTGAC", "relative binding energy [ln ratio]": -1.25}
{"Strand": "GCTCGTT", "relative binding energy [ln ratio]": 1.15}
{"Strand": "AAACGTT", "relative binding energy [ln ratio]": -0.416}
{"Strand": "GCACGTT", "relative binding energy [ln ratio]": 1.19}
